# Measurements pooled from the literature.
# Compare with care: the assays were run in different laboratories. Numbers after ± are the reported error.
# Temperature: 37 °C
Compound,assay,test system,conditions,HC50
CC(C)C[C@@H](NC(=O)[C@@H](C)NC(=O)[C@@H](CCCCN)NC(=O)[C@H](N)CCCCN)C(=O)N[C@H](C)C(=O)N[C@H](Cc1c[nH]cn1)C(=O)N[C@H](C)C(=O)N[C@H](CC(C)C)C(=O)N[C@H](CCCCN)C(=O)N[C@H](CCCCN)C(=O)N[C@H](Cc1c[nH]c2ccccc12)C(=O)N[C@H](CC(C)C)C(=O)N1CCC[C@@H]1C(=O)N[C@H](C)C(=O)N[C@H](CC(C)C)C(=O)N[C@H](CCCCN)C(=O)N[C@H](CCCCN)C(=O)N[C@H](CC(C)C)C(=O)N[C@H](C)C(=O)N[C@H](Cc1c[nH]cn1)C(=O)N[C@H](C)C(=O)N[C@H](CC(C)C)C(=O)N[C@H](C)C(=O)N[C@H](CCCCN)C(=O)N[C@H](CCCCN)C(N)=O,haemolysis,human erythrocytes,"30 min, pH 7.4",79.6 ± 2.8 µM
CC[C@H](C)[C@@H]1NC(=O)[C@H](CCCCN)NC(=O)[C@H](CCCCN)NC(=O)[C@H](Cc2ccc(O)cc2)NC(=O)[C@H](CC(C)C)NC(=O)[C@@H]2CCCN2C(=O)[C@H](C)NC(=O)CNC(=O)CNC(=O)[C@H](CO)NC(=O)CNC(=O)CNC(=O)[C@H](CO)NC(=O)[C@H]([C@@H](C)O)NC(=O)[C@H](CC(C)C)NC(=O)[C@H](CC(C)C)NC(=O)[C@H](C)NC(=O)[C@H](Cc2c[nH]c3ccccc23)NC(=O)[C@H](Cc2ccc(O)cc2)NC(=O)[C@H](Cc2c[nH]cn2)NC(=O)[C@H](CCC(=O)O)NC(=O)[C@H](Cc2ccccc2)NC(=O)[C@H]([C@@H](C)O)NC(=O)[C@H](CC(C)C)NC(=O)[C@@H]2CCCN2C(=O)CNC(=O)CNC(=O)CSC[C@@H](C(N)=O)NC(=O)[C@H](CC(C)C)NC(=O)[C@H](CCCCN)NC(=O)[C@H](CCCCN)NC(=O)[C@H]([C@@H](C)CC)NC1=O,,human red blood cells,1 h,> 64 µM
CC(C)C[C@@H](NC(=O)[C@@H](C)NC(=O)[C@@H](CCCCN)NC(=O)[C@@H](CC(C)C)NC(=O)[C@@H](C)NC(=O)[C@H]1CCCN1C(=O)[C@@H](CC(C)C)NC(=O)[C@@H](Cc1c[nH]c2ccccc12)NC(=O)[C@@H](CCCCN)NC(=O)[C@@H](C)NC(=O)[C@@H](CC(C)C)NC(=O)[C@@H](C)NC(=O)[C@@H](Cc1c[nH]cn1)NC(=O)[C@@H](CCCCN)NC(=O)[C@@H](CC(C)C)NC(=O)[C@@H](C)NC(=O)[C@@H](CCCCN)NC(=O)[C@H](N)CCCCN)C(=O)N[C@H](C)C(=O)N[C@H](Cc1c[nH]cn1)C(=O)N[C@H](CCCCN)C(=O)N[C@H](CC(C)C)C(=O)N[C@H](C)C(=O)N[C@H](CCCCN)C(=O)N[C@H](CCCCN)C(N)=O,haemolysis,human erythrocytes,"30 min, pH 7.4",185 ± 18.6 µM
CC[C@H](C)[C@H](NC(=O)[C@H](CCCCN)NC(=O)[C@H](CCCCN)NC(=O)[C@H](C)NC(=O)[C@@H](NC(=O)[C@H](C)NC(=O)[C@H](CC(C)C)NC(=O)[C@H](CC(C)C)NC(=O)[C@H](C)NC(=O)[C@H](CCCCN)NC(=O)[C@H](CC(C)C)NC(=O)[C@H](CC(N)=O)NC(=O)[C@@H](N)CC(C)C)C(C)C)C(=O)N[C@@H](CC(C)C)C(N)=O,,horse erythrocytes,2 h,40.1 µM
CC(C)C[C@@H](NC(=O)[C@H]1CCCN1C(=O)[C@@H](CC(C)C)NC(=O)[C@@H](Cc1c[nH]c2ccccc12)NC(=O)[C@@H](CCCCN)NC(=O)[C@@H](CCCCN)NC(=O)[C@@H](C)NC(=O)[C@@H](CC(C)C)NC(=O)[C@@H](C)NC(=O)[C@@H](CC(C)C)NC(=O)[C@@H](C)NC(=O)[C@@H](CC(C)C)NC(=O)[C@@H](CCCCN)NC(=O)[C@H](N)CCCCN)C(=O)N[C@H](C)C(=O)N[C@H](CCCCN)C(=O)N[C@H](CCCCN)C(=O)N[C@H](CC(C)C)C(=O)N[C@H](C)C(=O)N[C@H](CC(C)C)C(=O)N[C@H](C)C(=O)N[C@H](CC(C)C)C(=O)N[C@H](C)C(=O)N[C@H](CCCCN)C(=O)N[C@H](CCCCN)C(N)=O,haemolysis,human erythrocytes,"30 min, pH 7.4",58.6 ± 10.4 µM
CC(=O)N[C@H](CCCCN)C(=O)N[C@H](CC(C)C)C(=O)N[C@H](CCCN)C(=O)N[C@H](CO)C(=O)N[C@H](CC(C)C)C(=O)N[C@H](CC(C)C)C(=O)N[C@H](CCCN)C(=O)N[C@@H](C(=O)N[C@H](CC(C)C)C(=O)N[C@H](CO)C(=O)N[C@H](CCCN)C(=O)N[C@H](C)C(=O)N[C@H](C)C(=O)N[C@H](C)C(=O)N[C@H](C)C(=O)N[C@H](C)C(=O)N[C@H](CC(C)C)C(=O)N[C@H](CCCN)C(=O)N[C@@H](C(=O)N[C@H](CC(C)C)C(=O)N[C@H](CC(C)C)C(=O)N[C@H](CCCN)C(=O)N[C@H](C)C(=O)N[C@H](CC(C)C)C(=O)N[C@H](CO)C(=O)N[C@H](CCCN)C(N)=O)[C@H](C)O)[C@H](C)O,,human erythrocytes,"18 h, pH 7.4, 50% hemolysis",2.3 µg/mL
CCCCCCCCc1cc(CN(Cc2ccccn2)Cc2ccccn2)c(O)c(CN(Cc2ccccn2)Cc2ccccn2)c1.O=[N+]([O-])[O-].O=[N+]([O-])[O-].O=[N+]([O-])[O-].O=[N+]([O-])[O-].[Zn+2].[Zn+2],haemolysis,human red blood cells,3 h,42 ± 3 µM
CC[C@H](C)[C@@H]1NC(=O)[C@H](CCCCN)NC(=O)[C@H](CCCCN)NC(=O)[C@H](Cc2ccc(O)cc2)NC(=O)[C@H](CC(C)C)NC(=O)[C@@H]2CCCN2C(=O)[C@H](C)NC(=O)CNC(=O)CNC(=O)[C@H](CO)NC(=O)CNC(=O)CNC(=O)[C@H](CO)NC(=O)[C@H](CCC(=O)O)NC(=O)[C@H](CC(C)C)NC(=O)[C@H](CC(C)C)NC(=O)[C@H](CCCCN)NC(=O)[C@H](CCCCN)NC(=O)[C@H]([C@@H](C)CC)NC(=O)[C@H]([C@@H](C)CC)NC(=O)[C@H](CCCCN)NC(=O)[C@H](CCCCN)NC(=O)[C@H](Cc2ccc(O)cc2)NC(=O)[C@H](CC(C)C)NC(=O)[C@@H]2CCCN2C(=O)CNC(=O)CNC(=O)CSC[C@@H](C(N)=O)NC(=O)[C@H](CC(C)C)NC(=O)[C@H](CCCCN)NC(=O)[C@H](CCCCN)NC(=O)[C@H]([C@@H](C)CC)NC1=O,,human red blood cells,1 h,> 64 µM
CC[C@H](C)[C@@H]1NC(=O)[C@H](CCCCN)NC(=O)[C@H](CCCCN)NC(=O)[C@H](C)NC(=O)[C@H](C(C)C)NC(=O)[C@H](C)NC(=O)[C@H](CC(C)C)NC(=O)[C@H](CC(C)C)NC(=O)[C@H](C)NC(=O)[C@H](CCCCN)NC(=O)[C@H](CC(C)C)NC(=O)[C@H](CC(N)=O)NC(=O)[C@H](CC(C)C)NC(=O)[C@@H](N)CSSC[C@@H](C(N)=O)NC(=O)[C@H](CC(C)C)NC1=O,,horse erythrocytes,2 h,9.19 µM
O=[N+]([O-])[O-].O=[N+]([O-])[O-].O=[N+]([O-])[O-].O=[N+]([O-])[O-].[N-]=[N+]=NCCc1cc(CN(Cc2ccccn2)Cc2ccccn2)c(O)c(CN(Cc2ccccn2)Cc2ccccn2)c1.[Zn+2].[Zn+2],haemolysis,human red blood cells,3 h,95 ± 4 µM
CC(C)C[C@H](NC(=O)[C@H](CC(N)=O)NC(=O)[C@H](CCCNC(=N)N)NC(=O)[C@@H](CC(C)C)NC(=O)[C@H](Cc1ccc(-c2ccccc2)cc1)NC(=O)[C@H](CC(=O)O)NC(=O)[C@H](C)NC(=O)[C@@H](CC(C)C)NC(=O)[C@H](CCCNC(=N)N)NC(=O)[C@H](CCC(N)=O)NC(=O)[C@@H](NC(=O)[C@@H](CC(C)C)NC(=O)[C@H](CCCNC(=N)N)NC(=O)[C@H](C)NC(=O)[C@H](Cc1ccc(-c2ccccc2)cc1)NC(=O)CN)C(C)C)C(=O)N[C@H](C(N)=O)C(C)C,,human red blood cells,1 h,< 12.5 µM

# A few entries again:
Compound,assay,test system,conditions,HC50
CC[C@H](C)[C@H](NC(=O)[C@H](CCCCN)NC(=O)[C@H](CCCCN)NC(=O)[C@H](C)NC(=O)[C@@H](NC(=O)[C@H](C)NC(=O)[C@H](CC(C)C)NC(=O)[C@H](CC(C)C)NC(=O)[C@H](C)NC(=O)[C@H](CCCCN)NC(=O)[C@H](CC(C)C)NC(=O)[C@H](CC(N)=O)NC(=O)[C@@H](N)CC(C)C)C(C)C)C(=O)N[C@@H](CC(C)C)C(N)=O,,horse erythrocytes,2 h,40.1 µM
